Measured values of several laboratories.
Each numbered part is a random draw from the data of one study; scales do not carry over between parts. Substitutions count along the parent as printed.

Block 1 — method: universal PBM; molecule type: double-stranded DNA, one strand shown; sample: in vitro; concentration: 600 nM; direction: higher = stronger binding
Target: Sal-like protein 4, full length isoform A (SALL4, Homo sapiens, UniProt Q9UJQ4, residues 1-1053)
UniProt Q9UJQ4, sequence (whole entry, looked up): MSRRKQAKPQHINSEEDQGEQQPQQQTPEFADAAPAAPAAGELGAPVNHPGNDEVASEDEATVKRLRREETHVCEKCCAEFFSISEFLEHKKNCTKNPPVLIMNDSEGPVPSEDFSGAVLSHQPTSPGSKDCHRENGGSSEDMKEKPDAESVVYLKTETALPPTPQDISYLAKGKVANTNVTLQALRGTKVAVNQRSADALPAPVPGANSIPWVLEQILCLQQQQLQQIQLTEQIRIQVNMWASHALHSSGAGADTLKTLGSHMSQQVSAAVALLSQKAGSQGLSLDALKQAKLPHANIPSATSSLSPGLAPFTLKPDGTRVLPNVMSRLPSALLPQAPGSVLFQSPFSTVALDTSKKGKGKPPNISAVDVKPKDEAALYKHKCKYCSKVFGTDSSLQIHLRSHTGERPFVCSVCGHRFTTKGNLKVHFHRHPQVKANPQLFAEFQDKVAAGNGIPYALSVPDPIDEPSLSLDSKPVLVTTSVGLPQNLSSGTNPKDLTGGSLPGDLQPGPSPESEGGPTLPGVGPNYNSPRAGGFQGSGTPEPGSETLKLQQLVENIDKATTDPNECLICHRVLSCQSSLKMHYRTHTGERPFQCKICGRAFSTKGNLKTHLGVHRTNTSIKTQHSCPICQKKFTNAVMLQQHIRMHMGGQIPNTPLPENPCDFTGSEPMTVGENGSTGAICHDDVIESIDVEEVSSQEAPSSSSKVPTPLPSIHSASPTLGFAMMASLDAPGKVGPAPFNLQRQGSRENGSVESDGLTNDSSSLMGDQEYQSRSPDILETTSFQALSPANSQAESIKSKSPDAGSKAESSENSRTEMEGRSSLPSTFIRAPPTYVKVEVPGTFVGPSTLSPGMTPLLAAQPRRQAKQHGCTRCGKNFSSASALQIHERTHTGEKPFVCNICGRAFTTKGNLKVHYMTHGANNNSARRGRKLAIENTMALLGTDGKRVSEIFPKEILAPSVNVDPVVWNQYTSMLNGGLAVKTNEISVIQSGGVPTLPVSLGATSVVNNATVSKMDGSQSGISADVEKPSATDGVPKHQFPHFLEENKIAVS
Setting: 8-mer, flanks averaged, mean of replicates
Sequence	E-score
AGAGTTCA	-0.0428
ACACACGC	0.06
AGCTCAAA	0.126
GTAGCACA	-0.0429
GGGGAGAA	-0.211
CAGGCACA	-0.135
CCCTACAC	-0.0111
GAACACAC	-0.131
CGATTCTA	0.0479
TAAGGGGA	-0.0532
ACACGGGG	-0.327
AAATTGGC	0.014
ACAGGAGG	-0.235
AGCCGAAC	-0.213
ACAGTTAC	0.21
CAGCGGGC	-0.225
AGGCCCAA	-0.135
ATATAGCG	0.236
AGACTCAT	0.123
CTTCAATA	0.357
ACCCGGAC	-0.283

Block 2 — method: RNA Bind-n-Seq; molecule type: RNA; sample: in vitro; concentration: 200 nM; setting: whole 134-nt RNA, ends assumed; together with: 150 mM LiCl; reference: input library; direction: higher = stronger binding; each molecule: 7-deaza-guanosine replaces G
Target: Ras GTPase-activating protein-binding protein 1, full length (G3BP1, Homo sapiens, UniProt Q13283)
UniProt Q13283, sequence (whole entry, looked up): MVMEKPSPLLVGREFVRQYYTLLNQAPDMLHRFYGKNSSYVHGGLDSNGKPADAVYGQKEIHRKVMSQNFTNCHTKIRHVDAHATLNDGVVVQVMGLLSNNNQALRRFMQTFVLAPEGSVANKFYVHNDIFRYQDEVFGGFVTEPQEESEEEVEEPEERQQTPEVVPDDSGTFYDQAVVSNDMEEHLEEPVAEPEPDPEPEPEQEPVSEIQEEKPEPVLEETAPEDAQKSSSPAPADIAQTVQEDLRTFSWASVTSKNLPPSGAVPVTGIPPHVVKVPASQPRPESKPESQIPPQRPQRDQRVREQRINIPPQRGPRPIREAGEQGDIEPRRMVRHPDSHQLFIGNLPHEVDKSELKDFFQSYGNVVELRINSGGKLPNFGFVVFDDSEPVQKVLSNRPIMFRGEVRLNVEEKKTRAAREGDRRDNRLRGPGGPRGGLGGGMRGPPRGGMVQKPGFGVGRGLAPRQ
Constant ends, left off below: GGGAGUUCUACAGUCCGACGAUC … UGGAAUUCUCGGGUGUCAAGG
Sequence	log2 enrichment
CAAGUCCUGUGCUACACAUCGUAUGUACCGAAUCGGGUUUUUUUGGGUGGGUGGGAAAGUAUUAUGUUACGCCGUUCGGAUCUGCACUUC	0.254
UGGGAGGUGGAUUUUGUUUAUUUUUUUAGCUCAUUUCCAGGGGUGGGUAUUUUUUUUUAAUAUGUGUCAUGAAUAAAGUUGUUUUUGAAA	0.168
CCUCAAGUCCUGUGCUACACAUCGUAUGUACCGAAUCGGGAGGGAGGGGAGGAAAGUAUUAUGUUACGCCGUUCGGAUCUGCACUUCCAG	-0.233
UCAAGUCCUGUGCUACACAUCGUAUGUACCGAAUCGGAAAGGAGGUUUUUUUGGAAAGUAUUAUGUUACGCCGUUCGGAUCUGCACUUCC	-0.124
ACCAUGCAGGUGGGCAUCUUUCGGAAGUGGGGCAAGGGGGGGAUAGGGAGGGGGGUAACACUUUGGGAACAGGUGGUCCCAGGUCGUUUC	0.405
AAGUCCUGUGCUACACAUCGUAUGUACCGAAUCGGAAAAGGGAAAAGGGGAAAAGGAAAGUAUUAUGUUACGCCGUUCGGAUCUGCACUU	-0.167
GCAGGAAGUAAAAACAAAUGGAAAUGCUUCGGAUAGUGGCAGGGGAGGGGGUUGCUAAGGAAAGGGUGGGAUGGGAGUGGGUAAAGAGUU	0.0359
GUCAAGUGCUUCUGCUCCUGAUGUGGAUGACCCAGAGGCAUUCCCAGCUCUGGCUUAACUGGAUGCCAUAAGACAACCCUGGUUCCUUUG	-0.957
GUCCUGUGCUACACAUCGUAUGUACCGAAUCGGGUUUUUGGGUUUUUGGGAAAAAGGGAAAGUAUUAUGUUACGCCGUUCGGAUCUGCAC	-0.651
ACCAUGCAGGUGGGCAUCUUUGGGAAGUGGGGCAAAGGGGGGAUAGGGAGGGGGGUAACACUUUGGGAACAGGUGGUCCCAGGUCGUUUC	0.299
ACCAUGCAGGUUGGCAUCUUUGGGAAGUGGGGCAAGGGGGGGAUAGGGAGGGGGGUAACACUUUGGGAACAGGUGGUCCCAGGUCGUUUC	0.129

Block 3 — method: protein-binding microarray; molecule type: double-stranded DNA, one strand shown; sample: in vitro; concentration: not given; direction: higher = stronger binding
Target: Myc proto-oncogene protein, bHLH-zipper, MAX partner unstated (MYC, Homo sapiens, UniProt P01106, residues 368-449)
UniProt P01106, sequence (368-449, looked up): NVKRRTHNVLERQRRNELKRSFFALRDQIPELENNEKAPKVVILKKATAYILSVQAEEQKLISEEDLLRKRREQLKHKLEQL
Setting: k-mer, scored over probes, only values ≥0.25
Sequence	E-score
CGCACCCA	0.297
ATCCATGC	0.358
CATATGTC	0.251
AATATGGC	0.271
ACGAGGAC	0.362
CACTCCAC	0.287
ATGCACGA	0.312
CACGACGC	0.266
CATGTCGC	0.321
ACCACGCT	0.428
CCGGCGCG	0.264
GCATGGTA	0.423
CCGCATGC	0.452
CATGGCAG	0.343

Block 4 — target: CCND1, cyclin fold, Cln2 fusion (human); method: yeast growth competition, sequencing; sample: yeast; setting: weak parent motif; reference: not given; direction: higher = stronger binding
Starting sequence: PLK5 docking peptide (human); IFRKVGQRLLTQC
Variant	normalised enrichment score
R3A	0.25
T11A	0.664
I1A	0.328
L9A	0.58
L10A	0.47
R8A	0.403
K4A	0.447

Block 5 — target: XBP1, bZIP domain (human); method: DHFR protein complementation; sample: yeast; reference: wild-type JUN-FOS pair; direction: higher = stronger binding
Setting: single substitutions, most at no-binding floor
Starting sequence: JUN, bZIP domain (human); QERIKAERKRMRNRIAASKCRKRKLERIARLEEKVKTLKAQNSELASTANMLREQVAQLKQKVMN; partner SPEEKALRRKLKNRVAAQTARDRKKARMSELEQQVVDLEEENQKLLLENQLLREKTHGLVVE
Variant	binding fitness [natural log]
V35W	-1.42
T37K	-0.755
A49K	-1.16
L52F	-1.5
A49C	-0.841
Q41T	-1.17
V56Q	-1.24
M51Y	-0.623
N42Y	-1.47
Q55Y	-0.909
A40W	-1.36
A49L	-1.06
S43G	-0.964
E32C	-1.42
L31A	-1.49
M51Q	-0.603
T48I	-0.892

Block 6 — method: DHFR PCA, dose-response; sample: yeast; setting: Hill fit, mean, not affinity; together with: (+)-ABA, dose series; direction: lower = more sensitive
Target: ABI1, truncated, D143A, DHFR fusion (Arabidopsis thaliana, UniProt P49597)
Starting sequence: PYL1, truncated, DHFR fusion (Arabidopsis thaliana, UniProt Q8VZS8); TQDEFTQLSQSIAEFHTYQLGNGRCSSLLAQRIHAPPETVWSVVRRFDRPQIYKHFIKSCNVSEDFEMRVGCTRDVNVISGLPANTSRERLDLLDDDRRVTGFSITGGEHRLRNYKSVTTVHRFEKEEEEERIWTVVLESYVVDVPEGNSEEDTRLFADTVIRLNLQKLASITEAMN
Variant	ABA EC50 [µM]
N22Q	2.84
K126Y	1.58
P36H	2.27
L20W	4.46
S171F	3.1
K58G	17.1
L164T	0.289
V142E	1.8
I12V	3.89
R32S	3.53
E127F	2.45
E151C	1.94
D153A	89.1
P83E	67.4
M176E	3.57
G81M	329
K126P	0.676
S42I	70.9
I172N	240
T101Q	92
A30M	1.15
I52G	10.1
V137M	349
E127Q	2.61
E128Y	3.71

Repeated from above (block 2):
Sequence	log2 enrichment
CAAGUCCUGUGCUACACAUCGUAUGUACCGAAUCGGGUUUUUUUGGGUGGGUGGGAAAGUAUUAUGUUACGCCGUUCGGAUCUGCACUUC	0.254
UGGGAGGUGGAUUUUGUUUAUUUUUUUAGCUCAUUUCCAGGGGUGGGUAUUUUUUUUUAAUAUGUGUCAUGAAUAAAGUUGUUUUUGAAA	0.168
CCUCAAGUCCUGUGCUACACAUCGUAUGUACCGAAUCGGGAGGGAGGGGAGGAAAGUAUUAUGUUACGCCGUUCGGAUCUGCACUUCCAG	-0.233
UCAAGUCCUGUGCUACACAUCGUAUGUACCGAAUCGGAAAGGAGGUUUUUUUGGAAAGUAUUAUGUUACGCCGUUCGGAUCUGCACUUCC	-0.124
ACCAUGCAGGUGGGCAUCUUUCGGAAGUGGGGCAAGGGGGGGAUAGGGAGGGGGGUAACACUUUGGGAACAGGUGGUCCCAGGUCGUUUC	0.405
AAGUCCUGUGCUACACAUCGUAUGUACCGAAUCGGAAAAGGGAAAAGGGGAAAAGGAAAGUAUUAUGUUACGCCGUUCGGAUCUGCACUU	-0.167
GCAGGAAGUAAAAACAAAUGGAAAUGCUUCGGAUAGUGGCAGGGGAGGGGGUUGCUAAGGAAAGGGUGGGAUGGGAGUGGGUAAAGAGUU	0.0359
GUCAAGUGCUUCUGCUCCUGAUGUGGAUGACCCAGAGGCAUUCCCAGCUCUGGCUUAACUGGAUGCCAUAAGACAACCCUGGUUCCUUUG	-0.957
GUCCUGUGCUACACAUCGUAUGUACCGAAUCGGGUUUUUGGGUUUUUGGGAAAAAGGGAAAGUAUUAUGUUACGCCGUUCGGAUCUGCAC	-0.651
ACCAUGCAGGUGGGCAUCUUUGGGAAGUGGGGCAAAGGGGGGAUAGGGAGGGGGGUAACACUUUGGGAACAGGUGGUCCCAGGUCGUUUC	0.299
ACCAUGCAGGUUGGCAUCUUUGGGAAGUGGGGCAAGGGGGGGAUAGGGAGGGGGGUAACACUUUGGGAACAGGUGGUCCCAGGUCGUUUC	0.129
